Assay results pooled from the literature.
Each numbered part is a random draw from the data of one study; scales do not carry over between parts. Changes are numbered by the printed parent chain.

Set 1
Target: TAR DNA-binding protein 43, full length, His tag (TARDBP, Homo sapiens, UniProt Q13148, residues 1-414)
Technique: RNA Bind-n-Seq
Molecule type: RNA
Matrix: in vitro
Tested at: 20 nM
Notes: 6-mer, flanks averaged, single round
Added: 150 mM LiCl
Relative to: input library
Direction: higher = stronger binding
Endpoint: 6-mer enrichment (R)
AGAUGC: 0.906
CUCGCG: 0.857
UACCAG: 0.852
GCCGCA: 0.946
AAUUAA: 0.948
UCUUCG: 0.842
AACAUU: 0.891
GGCGAG: 1.15
UAAUCA: 0.864
GUGGCC: 1.15
UUAGGA: 0.942
CUUGCA: 0.934
AAUCCC: 0.922
CCGCAG: 0.929
GUCAUU: 0.97
UUUCUG: 1.07
GUAUUG: 1.1
GAGCGG: 1.15
AUCAUG: 0.866
CUAAGG: 0.848
UGAGCA: 0.955
CAACAC: 0.833
GAAUGA: 1.12
CCGUCG: 0.936
UGGUUC: 0.991

Set 2
Target: Sal-like protein 4, full length isoform A (SALL4, Homo sapiens, UniProt Q9UJQ4, residues 1-1053)
UniProt Q9UJQ4, sequence (whole entry, looked up): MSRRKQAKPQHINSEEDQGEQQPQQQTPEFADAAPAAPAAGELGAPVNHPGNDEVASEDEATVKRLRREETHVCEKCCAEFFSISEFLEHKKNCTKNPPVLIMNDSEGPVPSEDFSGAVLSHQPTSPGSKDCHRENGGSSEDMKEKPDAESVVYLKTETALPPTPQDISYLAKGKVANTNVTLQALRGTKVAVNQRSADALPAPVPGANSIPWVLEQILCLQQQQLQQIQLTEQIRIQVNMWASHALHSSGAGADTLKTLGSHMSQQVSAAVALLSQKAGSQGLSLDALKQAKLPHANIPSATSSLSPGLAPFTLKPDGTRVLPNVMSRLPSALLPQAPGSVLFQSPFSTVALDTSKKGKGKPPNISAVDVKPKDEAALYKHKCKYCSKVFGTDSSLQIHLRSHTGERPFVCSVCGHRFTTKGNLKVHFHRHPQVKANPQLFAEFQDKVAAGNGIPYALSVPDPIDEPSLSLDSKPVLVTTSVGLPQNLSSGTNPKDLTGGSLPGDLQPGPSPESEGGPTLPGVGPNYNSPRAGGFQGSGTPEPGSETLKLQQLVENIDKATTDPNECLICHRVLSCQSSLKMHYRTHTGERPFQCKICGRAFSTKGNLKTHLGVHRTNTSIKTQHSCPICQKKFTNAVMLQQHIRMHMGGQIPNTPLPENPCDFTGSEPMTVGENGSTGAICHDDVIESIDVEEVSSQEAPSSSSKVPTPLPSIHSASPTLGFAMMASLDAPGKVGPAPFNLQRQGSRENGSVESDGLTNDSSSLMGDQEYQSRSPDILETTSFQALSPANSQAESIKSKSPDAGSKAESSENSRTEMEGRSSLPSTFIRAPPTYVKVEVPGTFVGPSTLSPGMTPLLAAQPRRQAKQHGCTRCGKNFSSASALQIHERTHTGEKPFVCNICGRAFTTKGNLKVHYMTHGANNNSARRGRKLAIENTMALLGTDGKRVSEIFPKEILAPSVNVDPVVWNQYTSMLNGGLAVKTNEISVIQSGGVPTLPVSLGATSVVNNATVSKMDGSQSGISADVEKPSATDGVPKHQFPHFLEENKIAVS
Technique: universal PBM
Molecule type: double-stranded DNA, one strand shown
Matrix: in vitro
Tested at: 600 nM
Notes: 8-mer, flanks averaged, mean of replicates
Direction: higher = stronger binding
Endpoint: E-score
ACCTCTAT: 0.0426
AAAAGAAG: 0.188
AACCGTTG: 0.029
CAATGAGG: -0.193
CCCCCCTC: -0.33
TAAGCCTA: 0.0731
CCTATGCG: -0.0167
GCCAGTAA: -0.0427
CGATAATC: 0.0963
ATGGAATC: 0.158
TCCGGCAA: -0.119
CGTGGGAG: -0.246
GGGTATCA: -0.0591
GCTCCAAC: -0.131
ATCGGTGC: -0.059
ATTCAGGG: -0.0474
CCGAGGTC: -0.394
TCAAAACA: 0.298
GACTAAAA: 0.206
AAACTCAT: 0.194
GGAAGCGA: -0.131
CGGTTTGC: -0.164
ACTGAACA: 0.0958
AATACTAA: 0.3

Set 3
Target: RNA binding protein fox-1 homolog 2, RRM domain, GST-SBP tag (RBFOX2, Homo sapiens, UniProt O43251-10, residues 100-194)
Technique: RNA Bind-n-Seq
Molecule type: RNA
Matrix: in vitro
Tested at: 365 nM
Notes: natural RNA segment, single round, ends assumed
Relative to: no-protein control
Direction: higher = stronger binding
Endpoint: RBNS enrichment (R)
Residues (chain): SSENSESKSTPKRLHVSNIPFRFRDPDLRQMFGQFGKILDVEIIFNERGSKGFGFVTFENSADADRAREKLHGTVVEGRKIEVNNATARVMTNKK
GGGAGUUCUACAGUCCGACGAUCACAAAACCAUAUCAGUGUACUGUAGCCCCUUAAUUUAAGCUUUCUAGAAAGCUUUGGAAGUUUUUGUAGAUAGUAGAAAGGGGGGCAUCACCUGAGAAAGAGCUGAUUUUUGGAAUUCUCGGGUGCCAA: 0.69
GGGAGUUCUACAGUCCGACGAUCAUCUGCGCGCGGCCUAGCCCGGGCCUCAUUUCUUAUCCCCGCCAAGGGUUUCCUCUCAGUCAUUUGUUUACCAGAAACAUGAAAACUGCCUGUCUGGCCGGGCCGCACUUUGGAAUUCUCGGGUGCCAA: 0.524
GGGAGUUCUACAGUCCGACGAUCCACUGGCCUGCUCCUACAGAAGGAAGCAAUCAUAGCUUCUAUUGUUUUAAACAAAACAACAGGAAGAACAGGACCAGGACUCUCCUAUACACAGUGUGUAGGAACAGCUGUGGAAUUCUCGGGUGCCAA: 0.266
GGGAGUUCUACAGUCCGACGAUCUGUAGAAUGAAGUAUAACGUCAGUGAAUGAGAGUCCAAGUUCUUAUCACACGAUAUUAGGUACUAAUUAUACCCUCAUUGCUUUAAAAUACACAUCAGGGUCUCUUUUAAUGGAAUUCUCGGGUGCCAA: 0.249
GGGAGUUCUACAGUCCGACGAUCCUAAGGAUGAGGGCUGUCAAACAGAAAAUGCUGAAGACUUUACAGCUGUGGGGUCCAAAACCCUAAGGGCUCCAAUCCCACCCACAUUCUUUCUCGGUCUUUGUCUCUCUUGGAAUUCUCGGGUGCCAA: 0.368
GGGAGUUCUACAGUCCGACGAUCGCUUUAUUUAUCUGUAUGAACACAGAUUUGACAUUACAGCUAAGGAAAUAAUUUGAGUUGAUUCAGAAAUCCUGGCAUGUGACAAUUUUGUUAAAUUACCAAGUUUGGUUUGGAAUUCUCGGGUGCCAA: 1.5
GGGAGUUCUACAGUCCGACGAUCUCUAAGGGGACGUUAUAAGUGAGCAGAAUAUCAGAAGACCAUGAAUAUGGCAAUUCAUAGUUGAGCUGUGUUGGCUUGAGGGAUGCUGCUGCUAAGUAGGGUGGACUGGGUGGAAUUCUCGGGUGCCAA: 0.572
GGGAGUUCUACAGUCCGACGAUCUGCCCCUUCAAUCUUACCUUUUCCUACAAUGCCAUGUAAGUGGGGUCAGCCAUGAUGUCAUGUGUGUCAGUAGAGGGUCUCCUCUCCCUGCUGAGUAGUAUUCUAUCAUAUGGAAUUCUCGGGUGCCAA: 0.426
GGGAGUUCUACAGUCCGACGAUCUUAGAUUGCUCUUUGGUCCCAGCUCAUGUUCAUCACUCCCUUCAAAGCCUUUCUUCCUUUAUAUCUUCUGACUGAGCUCUCCCUGAUUGACAUCACCUCAUGCGAUGACCUGGAAUUCUCGGGUGCCAA: 0.864
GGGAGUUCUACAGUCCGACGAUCAACAGUUGUAGGGAGACCCAGCAGCACCUUUCCUCCACACACCUUCAUUUUGAUGUUCGGGUUUUUGUGUUAAGUUAAUCUGUACAUUCUGUUUGCCAUUGUUACUUGUAUGGAAUUCUCGGGUGCCAA: 0.711
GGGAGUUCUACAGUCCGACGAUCGCCCCUGGCCCCCCACGAGAGCUGGAGAGCCAUGUAUAUGGCUUCAAAGCCACCUACGGCAGGGACACACUCGUGAGCAUGUGUGGCCUGCAGUUCAGGUGAUACAUUUAUGGAAUUCUCGGGUGCCAA: 0.348
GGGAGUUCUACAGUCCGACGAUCGCUCCUUUGUAAGCUUCAGGCCACACCCACCCCCUCAGUCCAUAUCUGCACUUGCUCAUAGGCCGGUUCCUUUUAUUUGAAUAAUAAAUAAAGCUAGUUCUAUUGAAAUGUGGAAUUCUCGGGUGCCAA: 0.929

Set 4
Substance: PhoQ, residues 284 288 289 292 302 303 SQSLSM
Technique: Sort-seq
Measured: YFP reporter
Matrix: E. coli
Notes: PhoQ-PhoP variant library
Added: 10 µM Mg2+
Relative to: high Mg2+ state
Direction: higher = stronger signaling
Endpoint: fold induction
PhoP, residues 12 14 15 18 19 TQALL (Escherichia coli, UniProt P23836): 9.27
PhoP, residues 12 14 15 18 19 NYFRM (Escherichia coli, UniProt P23836): 9.21
PhoP, residues 12 14 15 18 19 QYFSL (Escherichia coli, UniProt P23836): 2.82

Set 5
Target: CCND2, cyclin fold, Cln2 fusion (human)
Technique: yeast growth competition, sequencing
Matrix: yeast
Notes: weak parent motif
Relative to: not given
Direction: higher = stronger binding
Endpoint: normalised enrichment score
Starting sequence: CABLES2 docking peptide (human); ICAKRSLCAAFSV
S12A: -0.0898
R5A: -0.313
C8A: -0.27
S6A: -0.117
L7A: -0.18

Set 6
Target: RING finger protein unkempt homolog, zinc fingers 1-6, GST-SBP tag (UNK, Homo sapiens, UniProt Q9C0B0, residues 30-357)
Technique: RNA Bind-n-Seq
Molecule type: RNA
Matrix: in vitro
Tested at: not given
Notes: RNA with constant flanks, human and mouse sites, ends assumed
Relative to: input RNA pool
Direction: higher = stronger binding
Endpoint: bound/input enrichment
Construct (chain): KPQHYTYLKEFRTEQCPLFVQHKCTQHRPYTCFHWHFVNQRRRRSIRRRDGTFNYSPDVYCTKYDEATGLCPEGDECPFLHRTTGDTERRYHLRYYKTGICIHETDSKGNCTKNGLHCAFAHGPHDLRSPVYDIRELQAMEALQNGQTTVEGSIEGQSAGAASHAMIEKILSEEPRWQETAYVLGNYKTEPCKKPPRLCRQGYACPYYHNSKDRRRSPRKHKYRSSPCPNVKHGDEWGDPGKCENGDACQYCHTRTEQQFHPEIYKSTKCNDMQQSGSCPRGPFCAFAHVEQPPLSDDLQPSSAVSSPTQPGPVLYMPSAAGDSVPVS
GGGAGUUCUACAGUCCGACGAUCUUAGCUAGUGGAGCCACUUUCUGUAUUGUUACAUGGACAUAUGUAGCAACACAAGUCGGAAUAGAAUGGAACCUGUCCCCUGUUGGCAGAGUUACCCCAAAGGAAUGGAGGAAUCAGUAACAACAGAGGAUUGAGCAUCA: 0.244 ratio
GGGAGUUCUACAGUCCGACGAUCGUGGCUGAGUACGAUGCCUAUUUUGAGGAGGUUAAACAAGAGAUCAAUCAAAGGCUGACCCUUAGUGACUUCCUGAUCAAGCCCAUUCAGAGAAUAACAAAGUACCAGCUGCUACUCAAGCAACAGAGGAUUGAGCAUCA: 0.161 ratio
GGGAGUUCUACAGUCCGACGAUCACGAUCGGGGCCUAUAUCAACACAACGCACUCACGCCUCACACACAUCAGUCCUCGGCACUAUAGCGAGUUUAUCGAGUUCCUCAGCAAGGCCCGAGAGACCUUCCUAAUGGCACACGAUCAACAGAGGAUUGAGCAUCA: 0.242 ratio
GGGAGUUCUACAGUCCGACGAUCUAUAGAAAUGCAUAUACAAUGGUUUUGCAUAAACAUGGAGAAAAGCUCUACACUGGACUAAGAGAAGUUGUUACUGAACAUCUCAUAAAUAAGGUGCGAGAAGAUGUACUAAAUUCAUUGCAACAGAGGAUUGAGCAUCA: 0.128 ratio
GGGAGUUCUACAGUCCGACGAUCUUUACCUGAAUUUGGAAAUGGGAUUUUGUCAACAAUGCAUUUAUAUUUGGGGACGAUAAAUGAACAUUACAGAGGGCCAUCAUAAAUAAAAUCAGGAUAGCAAUAUACCUUUUUAAAAGACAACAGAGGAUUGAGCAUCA: 0.955 ratio
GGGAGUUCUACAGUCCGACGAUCUUUCCACUAAAGCCUUUUGGAAAGCGGUGAUUUGAGGGGCAAGGUGCUUAGAGAUACUCGCUCGCUGGGGAAGGGGGGAGGGAGGCAGUGGUGGCUGGAGGGUGCGCCACUUUCAGAGCCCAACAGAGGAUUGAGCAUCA: 0.466 ratio
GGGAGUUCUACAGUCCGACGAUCAUAAAGAUAUCUAGCCAAAAUCUCAAUCUUGCCUUAACAAUGUUUCAGAGACUGAAUAAAAUGUUUGUAGGCGAAGUCACUACUUCUUCCAGCCAAGAACCAGAAUUCAGUGAGAAAGAACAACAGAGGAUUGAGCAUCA: 0.621 ratio
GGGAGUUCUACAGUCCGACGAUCAAAGCCUUCAUUAAACUUCCUGACAACCAUCACAUCAGCAACGUGACUGGCUAUCUAACAGUUCUACACCAGUUUUUAAAGGUGGACAGUUUUCUGCCUGCGACUGGAGUCACUUAUAAACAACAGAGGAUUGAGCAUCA: 0.132 ratio
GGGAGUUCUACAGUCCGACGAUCGUUUUCUAUUCUCCCUCUACCUUAUCCCCCACCCCCACCCCACCCCACCCCUUUUUUAUUUAGUUUUAUUUACUUUACCUAGUAUGGCUUUUUUAGUUGCUUCUCAAGUCAGAAAACUUCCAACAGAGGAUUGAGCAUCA: 3.85 ratio
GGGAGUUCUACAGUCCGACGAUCUAUACUUUAUUGAUCAACAUCCUUCAUAGUGAAGACCUAGGAAAGGACGUUGAAUUUGAAGUUGUUGGUGAUGCCCCGGAAAAAGUGGGGCCCAAACAAGCUGAAGAUGCUGCCAAAAGCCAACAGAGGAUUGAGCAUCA: 0.173 ratio
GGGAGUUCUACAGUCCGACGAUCGGUAAGCGUCGCAACAAGACGCACACGCUGUGCCGCCGCUGUGGCUCCAAGGCCUACCACCUUCAGAAGUCGACUUGUGGCAAGUGUGGCUACCCUGCCAAGCGCAAGAGGAAGUAUAACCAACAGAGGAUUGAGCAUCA: 0.068 ratio

A few entries again (set 2):
GACTAAAA: 0.206
ACCTCTAT: 0.0426
TAAGCCTA: 0.0731
CAATGAGG: -0.193
AATACTAA: 0.3
TCCGGCAA: -0.119
